Assay results gathered from unrelated publications.
Each numbered part is a random draw from the data of one study; scales do not carry over between parts. Values joined by “and” are separate records of one study, mostly repeats; a detail may differ.
Sequence of UniProt Q8NI60 (whole entry, looked up): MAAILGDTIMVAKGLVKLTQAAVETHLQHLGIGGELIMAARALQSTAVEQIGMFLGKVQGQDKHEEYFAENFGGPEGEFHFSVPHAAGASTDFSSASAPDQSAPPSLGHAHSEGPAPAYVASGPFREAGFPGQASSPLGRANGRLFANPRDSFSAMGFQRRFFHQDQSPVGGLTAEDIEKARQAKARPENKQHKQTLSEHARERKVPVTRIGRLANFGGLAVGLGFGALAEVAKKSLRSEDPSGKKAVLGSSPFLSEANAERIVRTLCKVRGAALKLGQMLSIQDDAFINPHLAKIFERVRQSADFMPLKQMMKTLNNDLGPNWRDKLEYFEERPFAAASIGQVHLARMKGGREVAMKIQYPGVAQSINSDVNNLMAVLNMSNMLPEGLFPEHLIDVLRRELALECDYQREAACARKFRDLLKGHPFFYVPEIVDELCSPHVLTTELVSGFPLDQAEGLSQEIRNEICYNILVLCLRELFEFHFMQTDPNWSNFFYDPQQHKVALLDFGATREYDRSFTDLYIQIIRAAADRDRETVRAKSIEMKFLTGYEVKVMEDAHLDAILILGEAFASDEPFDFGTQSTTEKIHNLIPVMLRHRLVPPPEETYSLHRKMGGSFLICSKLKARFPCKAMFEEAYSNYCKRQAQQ
Sequence of UniProt O15146 (whole entry, looked up): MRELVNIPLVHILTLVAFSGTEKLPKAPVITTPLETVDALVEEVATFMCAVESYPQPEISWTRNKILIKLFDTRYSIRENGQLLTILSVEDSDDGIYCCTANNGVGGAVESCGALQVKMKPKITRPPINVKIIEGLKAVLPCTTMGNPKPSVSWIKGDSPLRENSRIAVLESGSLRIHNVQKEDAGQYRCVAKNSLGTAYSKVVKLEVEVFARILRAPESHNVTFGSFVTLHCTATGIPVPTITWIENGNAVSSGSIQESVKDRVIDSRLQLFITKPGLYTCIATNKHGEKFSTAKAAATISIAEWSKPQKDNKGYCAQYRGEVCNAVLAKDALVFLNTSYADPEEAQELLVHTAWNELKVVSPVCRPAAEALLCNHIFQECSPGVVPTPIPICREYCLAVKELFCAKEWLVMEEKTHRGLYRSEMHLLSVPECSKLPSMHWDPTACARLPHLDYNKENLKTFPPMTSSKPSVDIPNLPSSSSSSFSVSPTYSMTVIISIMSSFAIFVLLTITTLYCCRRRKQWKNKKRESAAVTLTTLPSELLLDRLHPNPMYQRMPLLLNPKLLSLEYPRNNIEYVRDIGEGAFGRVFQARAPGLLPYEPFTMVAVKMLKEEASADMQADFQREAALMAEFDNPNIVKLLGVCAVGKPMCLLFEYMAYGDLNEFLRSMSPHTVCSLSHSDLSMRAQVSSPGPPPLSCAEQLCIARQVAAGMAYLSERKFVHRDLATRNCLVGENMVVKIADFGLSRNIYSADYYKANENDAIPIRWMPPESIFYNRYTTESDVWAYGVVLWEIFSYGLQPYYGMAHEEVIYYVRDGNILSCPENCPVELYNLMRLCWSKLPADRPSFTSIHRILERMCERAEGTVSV
Sequence of UniProt P42336 (whole entry, unmodified, looked up): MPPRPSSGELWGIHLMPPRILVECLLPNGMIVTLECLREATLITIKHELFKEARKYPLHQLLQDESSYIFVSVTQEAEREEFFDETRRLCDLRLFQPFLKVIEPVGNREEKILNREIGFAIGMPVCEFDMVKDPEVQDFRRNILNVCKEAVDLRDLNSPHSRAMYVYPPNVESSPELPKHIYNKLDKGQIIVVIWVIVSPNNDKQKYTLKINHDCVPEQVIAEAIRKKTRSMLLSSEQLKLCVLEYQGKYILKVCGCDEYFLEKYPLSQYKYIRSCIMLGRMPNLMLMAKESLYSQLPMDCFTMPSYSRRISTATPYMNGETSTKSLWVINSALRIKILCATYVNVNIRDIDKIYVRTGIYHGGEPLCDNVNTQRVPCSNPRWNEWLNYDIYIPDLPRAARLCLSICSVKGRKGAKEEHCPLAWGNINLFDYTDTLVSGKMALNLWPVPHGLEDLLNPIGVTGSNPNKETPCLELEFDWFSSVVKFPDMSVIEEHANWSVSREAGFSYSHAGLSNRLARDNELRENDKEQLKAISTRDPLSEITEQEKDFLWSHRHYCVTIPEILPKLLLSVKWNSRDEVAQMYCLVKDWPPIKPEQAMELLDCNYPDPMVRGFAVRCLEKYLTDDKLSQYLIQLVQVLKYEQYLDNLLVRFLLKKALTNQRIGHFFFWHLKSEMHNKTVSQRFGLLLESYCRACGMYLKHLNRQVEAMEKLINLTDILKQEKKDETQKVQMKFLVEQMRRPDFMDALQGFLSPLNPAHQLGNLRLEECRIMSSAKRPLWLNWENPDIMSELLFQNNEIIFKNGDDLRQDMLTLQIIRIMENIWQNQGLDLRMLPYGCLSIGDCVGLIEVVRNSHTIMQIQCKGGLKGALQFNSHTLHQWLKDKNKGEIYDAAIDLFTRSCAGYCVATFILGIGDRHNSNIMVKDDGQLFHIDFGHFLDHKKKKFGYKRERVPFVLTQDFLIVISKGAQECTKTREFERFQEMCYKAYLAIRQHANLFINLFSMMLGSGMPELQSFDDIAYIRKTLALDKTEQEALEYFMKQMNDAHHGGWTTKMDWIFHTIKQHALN
Sequence of UniProt P54764 (whole entry, looked up): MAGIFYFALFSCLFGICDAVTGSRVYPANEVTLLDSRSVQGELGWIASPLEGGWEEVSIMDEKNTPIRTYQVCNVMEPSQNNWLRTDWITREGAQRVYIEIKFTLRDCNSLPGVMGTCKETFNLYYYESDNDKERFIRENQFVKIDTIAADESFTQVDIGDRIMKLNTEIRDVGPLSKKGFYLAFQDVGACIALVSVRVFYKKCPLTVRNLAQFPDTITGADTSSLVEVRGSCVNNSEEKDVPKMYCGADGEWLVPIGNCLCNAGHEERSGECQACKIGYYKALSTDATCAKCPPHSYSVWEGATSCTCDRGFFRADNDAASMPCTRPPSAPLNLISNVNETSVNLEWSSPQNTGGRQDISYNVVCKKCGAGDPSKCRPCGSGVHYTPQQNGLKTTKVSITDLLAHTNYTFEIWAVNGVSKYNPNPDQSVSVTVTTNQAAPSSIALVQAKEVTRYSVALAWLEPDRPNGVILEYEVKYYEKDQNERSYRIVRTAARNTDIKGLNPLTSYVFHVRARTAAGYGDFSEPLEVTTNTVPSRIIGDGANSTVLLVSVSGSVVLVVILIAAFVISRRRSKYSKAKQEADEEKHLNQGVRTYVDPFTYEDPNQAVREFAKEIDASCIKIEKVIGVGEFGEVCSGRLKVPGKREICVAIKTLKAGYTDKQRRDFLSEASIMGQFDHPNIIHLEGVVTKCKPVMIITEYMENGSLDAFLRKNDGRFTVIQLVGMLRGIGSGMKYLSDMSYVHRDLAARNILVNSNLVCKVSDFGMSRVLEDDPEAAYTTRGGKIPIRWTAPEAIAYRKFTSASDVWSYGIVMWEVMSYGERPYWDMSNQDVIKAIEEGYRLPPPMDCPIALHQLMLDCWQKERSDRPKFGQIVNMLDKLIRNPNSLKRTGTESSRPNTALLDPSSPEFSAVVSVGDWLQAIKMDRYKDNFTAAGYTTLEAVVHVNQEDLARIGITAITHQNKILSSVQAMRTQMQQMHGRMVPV
Sequence of UniProt Q92772 (whole entry, looked up): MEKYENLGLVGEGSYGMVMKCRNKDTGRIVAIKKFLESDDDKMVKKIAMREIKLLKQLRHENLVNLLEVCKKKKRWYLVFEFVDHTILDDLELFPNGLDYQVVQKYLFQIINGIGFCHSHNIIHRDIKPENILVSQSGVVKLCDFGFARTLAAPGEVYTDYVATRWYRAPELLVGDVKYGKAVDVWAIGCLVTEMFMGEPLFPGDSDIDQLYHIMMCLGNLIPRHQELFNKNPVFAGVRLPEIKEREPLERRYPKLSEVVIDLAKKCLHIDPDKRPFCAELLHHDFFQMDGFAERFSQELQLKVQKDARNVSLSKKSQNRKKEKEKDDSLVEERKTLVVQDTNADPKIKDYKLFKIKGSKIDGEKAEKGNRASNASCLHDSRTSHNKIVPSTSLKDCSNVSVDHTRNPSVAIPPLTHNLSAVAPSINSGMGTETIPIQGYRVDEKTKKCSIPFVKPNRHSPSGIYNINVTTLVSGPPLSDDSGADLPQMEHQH

Set 1
SMILES: Nc1cnc(N2CCc3cc(S(=O)(=O)Nc4c(F)cc(Cl)cc4F)cc(N4CCCC4=O)c32)nc1
Observed: cell-free assay
Technique: competition with immobilised ligand
Concentration: 1 µM
Measurement: remaining binding
CAMK1D (Homo sapiens, UniProt Q8IU85): 97%
CDKL3 (Homo sapiens, UniProt Q8IVW4): 100%
LRRK2 (Homo sapiens, UniProt Q5S007): 97%
CDKL2 (Homo sapiens, UniProt Q92772): 85%
ZAP70 (Homo sapiens, UniProt P43403): 85%
MUSK (Homo sapiens, UniProt O15146): 100%
FGFR3 (Homo sapiens, UniProt P22607): 100%
MAPK8 (Homo sapiens, UniProt P45983): 78%
STK17A (Homo sapiens, UniProt Q9UEE5): 100%
MAP3K20 (Homo sapiens, UniProt Q9NYL2): 95%
KIT (Homo sapiens, UniProt P10721, V559D): 100%
Tyrosine-protein kinase ABL1, phosphorylated (ABL1, Homo sapiens, UniProt P00519, H396P): 86%
PIK3CA (Homo sapiens, UniProt P42336, M1043I): 100%
HIPK4 (Homo sapiens, UniProt Q8NE63): 100%
STK32B (Homo sapiens, UniProt Q9NY57): 74%
ULK2 (Homo sapiens, UniProt Q8IYT8): 100%
COQ8A (Homo sapiens, UniProt Q8NI60): 100%
EPHA4 (Homo sapiens, UniProt P54764): 100%
ALK (Homo sapiens, UniProt Q9UM73, L1196M): 81%

Set 2
Target: Serine/threonine-protein kinase BRSK1 (BRSK1, Homo sapiens, UniProt Q8TDC3)
Sequence of UniProt Q8TDC3 (whole entry, looked up): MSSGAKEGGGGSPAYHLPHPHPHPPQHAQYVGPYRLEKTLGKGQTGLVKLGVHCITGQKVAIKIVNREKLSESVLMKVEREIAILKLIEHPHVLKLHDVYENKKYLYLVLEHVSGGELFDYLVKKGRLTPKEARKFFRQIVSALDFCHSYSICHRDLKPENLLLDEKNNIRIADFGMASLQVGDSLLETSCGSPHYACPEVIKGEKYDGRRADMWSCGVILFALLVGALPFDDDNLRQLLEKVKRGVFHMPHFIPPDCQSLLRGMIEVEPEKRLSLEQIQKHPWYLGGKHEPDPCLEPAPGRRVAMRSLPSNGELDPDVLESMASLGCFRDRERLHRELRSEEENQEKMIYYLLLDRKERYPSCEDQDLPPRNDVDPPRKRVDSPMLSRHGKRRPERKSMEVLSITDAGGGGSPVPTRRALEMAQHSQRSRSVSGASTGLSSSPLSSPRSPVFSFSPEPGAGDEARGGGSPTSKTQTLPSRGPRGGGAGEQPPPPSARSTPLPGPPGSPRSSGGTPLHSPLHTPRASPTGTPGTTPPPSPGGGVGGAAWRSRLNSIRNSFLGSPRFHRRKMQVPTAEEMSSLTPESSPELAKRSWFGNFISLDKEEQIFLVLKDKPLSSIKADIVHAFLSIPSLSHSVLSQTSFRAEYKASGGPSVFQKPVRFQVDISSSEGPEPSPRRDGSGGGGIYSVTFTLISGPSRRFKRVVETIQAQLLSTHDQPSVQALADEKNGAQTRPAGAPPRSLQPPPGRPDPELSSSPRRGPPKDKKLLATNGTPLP
Observed: enzyme activity
Mode: inhibitor
Concentration: 0.5 µM
Relative to: control
Measurement: remaining activity
COc1ccc(C(=O)Nc2sc3c(c2C(N)=O)CCCC3)cc1OC: 105%
CNC(=O)c1cc(Oc2ccc(NC(=O)Nc3ccc(Cl)c(C(F)(F)F)c3)cc2)ccn1: 95.8%
COc1ccc(CNC(=O)Nc2ncc([N+](=O)[O-])s2)cc1: 102%
Nc1[nH]nc2nc3ccccc3nc12: 91.5%
O=C(Nc1cccc(Nc2cc(Nc3cccc(C(F)(F)F)c3)ncn2)c1)C1CC1: 101%
Nc1ccc2ncnc(NCCc3ccc(Oc4ccccc4)cc3)c2c1: 101%
COc1ccc(OC)c2c(=S)c3ccccc3[nH]c12: 93.7%
CO[C@H]1C[C@@H]2CC[C@@H](C)[C@@](O)(O2)C(=O)C(=O)N2CCCC[C@H]2C(=O)O[C@H]([C@H](C)C[C@@H]2CC[C@@H](O)[C@H](OC)C2)CC(=O)[C@H](C)/C=C(\C)[C@@H](O)[C@@H](OC)C(=O)[C@H](C)C[C@H](C)/C=C/C=C/C=C/1C: 99.9%
O=C(O)c1ccc2c3c1cccc3c(=O)n1c3ccccc3nc21: 89%
Cc1cccc(-c2[nH]c(C(C)(C)C)nc2-c2ccc3c(c2)OCO3)n1: 101%
O=C1NC(=O)C(c2cn(CCCO)c3ncccc23)=C1c1cnccn1: 89.2%
OCC(O)CCON=C1C(c2c(O)[nH]c3ccccc23)=Nc2ccccc21 (stereo not drawn): 39.5%
O=C(CCCc1ccc(-c2ccccc2F)cc1)Nc1ccc(O)cc1: 103%
Nc1ncnc2n[nH]c(Nc3ccc(F)cc3)c12: 63%
Oc1ccc(-c2nc(-c3ccncc3)c(-c3ccc(F)cc3)[nH]2)cc1: 101%

Set 3
Cell line: A-375
Concentration: 100 µM
Time: 36 h
Measurement: viability
CC1(C)[C@@H]2CC[C@@]1(C)C(=O)C2: 108%
CCN(CC)CCCC(C)Nc1c2ccc(Cl)cc2nc2ccc(OC)cc12 (stereo not drawn): -0.606%
Cc1onc(-c2c(Cl)cccc2Cl)c1C(=O)N[C@@H]1C(=O)N2[C@@H]1SC(C)(C)[C@@H]2C(=O)O: 114%
O=C(C1CCCCC1)N1CC(=O)N2CCc3ccccc3C2C1 (stereo not drawn): 92.5%
CS(=O)(=O)c1ccc(C(=O)Nc2ccc(Cl)c(-c3ccccn3)c2)c(Cl)c1: 61.4%

Set 4
SMILES: c1ccc(Oc2ccc(Nc3c4c(nc5ccccc35)CCC4)cc2)cc1
Technique: resazurin
Measurement: cytotoxicity
HEK293; 0.32 µM, 10% serum: 11% and 10%
HEK293; 0.0166 µM, 10% serum: 5%
RAW264.7; 6.66 µM, 64 h: -6%

Excerpt of the above (set 1):
CDKL3 (Homo sapiens, UniProt Q8IVW4): 100%
LRRK2 (Homo sapiens, UniProt Q5S007): 97%
CDKL2 (Homo sapiens, UniProt Q92772): 85%
ZAP70 (Homo sapiens, UniProt P43403): 85%
